Results of several laboratories.
Lines come from different studies, so protocols differ. “And” joins repeats or separate records; there may be more than shown. ± marks the error that the study gave.
UniProt P02769, sequence (whole entry, looked up): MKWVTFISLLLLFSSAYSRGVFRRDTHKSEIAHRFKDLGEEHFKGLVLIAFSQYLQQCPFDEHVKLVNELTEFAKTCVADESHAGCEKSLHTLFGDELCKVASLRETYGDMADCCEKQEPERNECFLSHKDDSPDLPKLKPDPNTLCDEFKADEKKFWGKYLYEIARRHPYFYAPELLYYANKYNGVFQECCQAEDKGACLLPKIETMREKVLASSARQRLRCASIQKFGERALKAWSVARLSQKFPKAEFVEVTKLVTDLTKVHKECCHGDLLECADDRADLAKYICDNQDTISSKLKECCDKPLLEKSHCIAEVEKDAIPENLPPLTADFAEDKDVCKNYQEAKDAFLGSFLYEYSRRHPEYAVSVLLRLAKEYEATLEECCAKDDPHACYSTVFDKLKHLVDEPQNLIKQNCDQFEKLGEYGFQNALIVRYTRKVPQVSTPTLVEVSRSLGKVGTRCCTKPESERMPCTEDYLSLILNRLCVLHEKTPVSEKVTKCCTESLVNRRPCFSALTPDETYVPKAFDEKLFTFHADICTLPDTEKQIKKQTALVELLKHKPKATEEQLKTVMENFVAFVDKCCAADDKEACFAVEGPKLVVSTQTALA

For `CN(Cc1ccccc1)C(=O)CN1CCN(CC(=O)[O-])CCN(Cc2cccc(C(=O)[O-])n2)CC1.[44Sc+3]`, the tracer uptake was 0.39 %ID/g (mouse, blood; intravenous, 1 h).
For `Nc1nc(-c2ccccc2)nc2[nH]nc(Nc3ccccc3)c12`, the CC50 was greater than 122 µM (HeLa Ohio; 72 h).
With `O=C(Nc1cc(-c2ccnc3[nH]ccc23)c(Cl)cn1)[C@H]1CCC[C@@H](NC(=O)C(F)(F)F)C1` the Papp was 17 ×10⁻⁶ cm/s (P-glycoprotein (MDR1); MDCK-MDR1 cells; apical to basolateral).
The revertant colonies of `O=C1NC2(CC2)COc2ncc(F)cc2[C@H]2COCCN2c2ccn3ncc1c3n2` is reported as 16 ± 1 revertants/plate (Salmonella typhimurium; Ames test; TA98; 500 µg/plate, 48 h, added: rat liver S9).
`CN(Cc1ccccc1)C(=O)CN1CCN(CC(=O)[O-])CCN(CC(=O)N(C)Cc2ccccc2)CC1.[18F-].[Sc+3]` has a tracer uptake of 2.48 %ID/g (mouse, bone; intravenous, 1 h).
`CCc1ccc(-c2nc(N)c3c(Nc4ccccc4)n[nH]c3n2)cc1` has a CC50 of greater than 151 µM (HeLa Ohio; 72 h).
The revertants of `Nc1nc2cc(C(=O)c3ccc(F)cc3)ccc2[nH]1` is reported as 21 revertants/plate (Salmonella typhimurium; Ames preincubation test; TA98; 78.0 µg/plate, without S9).
For `COc1cccc(OC)c1-c1cc(C(=O)NC2(C(=O)O)C3CC4CC(C3)CC2C4)nn1-c1ccc(C(=O)N(C)CCOCCOCCN(C)C(=O)[C@H](CCCCNC(=O)[C@H](CC(C)C)NC(=O)C2OC2C(=O)O)NC(=O)CN2CCN(CC(=O)[O-])CCN(CC(=O)[O-])CCN(CC(=O)[O-])CC2)cc1C(C)C.[177Lu+3]` (mixture of isomers), the tracer uptake was 3.3 %ID/g (HT-29 tumour model; host not given, blood; 4 h, tumour-bearing).
`CCN(CC)CC#CCNc1ccnc2cc(Cl)ccc12` gave a revertants of 6 revertants/well and 5 revertants/well (Salmonella typhimurium; mini-Ames test; TA98; 62.5 µg/well, without S9).
`CN(C)c1ccc2c(c1)C(C)(C)c1cc(N(C)C)ccc1C21OC(=O)c2c(C(=O)O)cccc21` gave a Kd of 573 ± 59 µM (Albumin (ALB, Bos taurus, UniProt P02769); binding, fluorescence titration; PBS).
`N#C[C@@H]1CC(F)(F)CN1C(=O)CNC(=O)c1ccnc2c(NC(=O)[C@@H](N)CCCCNC(=O)CCOCCOCCOCCOCCOCCOCCNC(=O)CN3CCN(CC(=O)[O-])CCN(CC(=O)[O-])CCN(CC(=O)[O-])CC3)cccc12.[177Lu+3]` has a tracer uptake of 0.2 %ID/g (U-87 MG tumour model; host not given, muscle; 4 h, tumour-bearing).
For `CC(C)OCCOCc1ccc(OCC(O)CN(N=O)C(C)C)cc1` (stereo not drawn), “revertant fold increase” read 0.8 fold (Salmonella typhimurium; Ames test; TA100; 50 µg/plate, 30 % rat S9; baseline: solvent control).
For `OC(Cc1cc(-c2ccc(C(O)C(F)(F)F)s2)sc1-c1ccc(-c2sc(-c3ccc(C(O)C(F)(F)F)s3)cc2CC(O)C(F)(F)F)s1)C(F)(F)F` (stereo not drawn), “amount in extracellular wash” read 0.1 nmol and 0.13 nmol (primary human fetal neurons; LC-MS/MS; 4 µM, 60 min, replicate 1).
`COc1cccc(OC)c1-c1cc(C(=O)NC2(C(=O)O)C3CC4CC(C3)CC2C4)nn1-c1ccc(C(=O)NCCNC(=O)[C@H](CCCCNC(=O)[C@H](CC(C)C)NC(=O)C2OC2C(=O)O)NC(=O)CN2CCN(CC(=O)[O-])CCN(CC(=O)[O-])CCN(CC(=O)[O-])CC2)cc1C(C)C.[177Lu+3]` (mixture of isomers) has a tracer uptake of 0.2 %ID/g (HT-29 tumour model; host not given, stomach; 24 h, tumour-bearing).
`C=C(NC(=O)c1csc(-c2nc3c(cc2O)-c2nc(cs2)C(=O)NC(C(C)O)C(=O)NC(=C(C)OC)c2nc(cs2)C(=O)NC2c4nc(cs4)C(=O)NC(COC(=O)c4c5c6c(cccc6n4O)COC(=O)C(OC4CC(C)(O)C(N(C)C)C(C)O4)C2OC5)c2nc-3cs2)n1)C(N)=O` (stereo not drawn) gave an AUC(0-t) of 0.525 µM·h (ICR mice, Streptococcus pneumoniae ATCC 49169 infected, immunocompromised, blood; intravenous, 8 mg/kg once daily).
`Cc1ccc(Nc2n[nH]c3nc(-c4ccncc4)nc(N)c23)cc1` gave a CC50 of greater than 158 µM (HeLa Ohio; 72 h).
`O=C1C2CC3CC1CC(C(=O)N1CCN(c4ccc([N+](=O)[O-])c5ncccc45)CC1)(C3)C2` — result for “revertant colony count”: 1 colonies/well (Salmonella typhimurium; Ames test; TA1535; 0.13 µg/well, with S9 activation).
For `Nc1nc(-c2ccccc2)nc2[nH]nc(Nc3ccc(F)c(Cl)c3)c12`, the CC50 was greater than 141 µM (HeLa Ohio; 72 h).
For `CNC(=O)C1CCCN(C(=O)C2CC3CCC2N3C(=O)[C@@H]2C[C@@H](O)CN2C(=O)NCc2cccc(Cl)c2F)C1` (mixture of isomers), the remaining activity was 97.7% (CYP3A4 (human); inhibitor, time-dependent inhibition; 1.85 µM, preincubated with NADPH, added: testosterone substrate; baseline: negative control).
The CC50 of `Cc1cccc(-c2nc(N)c3c(Nc4ccc(F)cc4)n[nH]c3n2)c1` is reported as 23.9 µM (HeLa Ohio; 72 h).
For `N#C[C@@H]1CCCN1C(=O)CNC(=O)c1ccnc2ccc(OCCCN3CCN(C(=O)CCc4ccc5c(c4)CN4CCN6CC(=O)[O][68Ga-]([O]C(=O)C4)([O]5)[O]c4ccc(CCC(=O)N5CCN(CCCOc7ccc8nccc(C(=O)NCC(=O)N9CCC[C@H]9C#N)c8c7)CC5)cc4C6)CC3)cc12`, the tracer uptake was 2.94 %ID/g (U-87 MG tumour model; host not given, liver; 2 h, tumour-bearing).
The CC50 of `Nc1nc(-c2ccccc2)nc2[nH]nc(Nc3ccc(F)cc3)c12` is reported as 138 µM (HeLa Ohio; 72 h).
`N#C[C@@H]1CC(F)(F)CN1C(=O)CNC(=O)c1ccnc2c(NC(=O)CCOCCOCCOCCOCCOCCOCCNC(=O)[C@H](CCCCNC(=O)CN3CCN(CC(=O)[O-])CCN(CC(=O)[O-])CCN(CC(=O)[O-])CC3)NC(=O)CCCc3ccc(I)cc3)cccc12.[177Lu+3]` gave a tracer uptake of 0.19 %ID/g (U-87 MG tumour model; host not given, stomach; 24 h, tumour-bearing).
`COc1ccc(Nc2n[nH]c3nc(-c4ccccc4)nc(N)c23)c(OC)c1` has a CC50 of greater than 138 µM (HeLa Ohio; 72 h).
The tracer uptake of `CC(C)Cc1ccc(C(C)C(=O)N[C@@H](CCCCNC(=O)CCOCCOCCOCCOCCOCCOCCNC(=O)CN2CCN(CC(=O)[O-])CCN(CC(=O)[O-])CCN(CC(=O)[O-])CC2)C(=O)Nc2cccc3c(C(=O)NCC(=O)N4CC(F)(F)C[C@H]4C#N)ccnc23)cc1.[177Lu+3]` (stereo partly drawn) is reported as 8.67 %ID/g (U-87 MG tumour model; host not given, liver; 1 h, tumour-bearing).
`Nc1nc(-c2ccc(OC(F)(F)F)cc2)nc2[nH]nc(Nc3ccc(Cl)cc3)c12` has a CC50 of 10.2 µM (HeLa Ohio; 72 h).
`O=C([O-])CN1CCN(CC(=O)[O-])CCN(Cc2cccc(C(=O)[O-])n2)CC1.[177Lu+3]` gave a tracer uptake of 0.47 %ID/g (mouse, blood; intravenous, 1 h).

A few entries again:
For `CNC(=O)C1CCCN(C(=O)C2CC3CCC2N3C(=O)[C@@H]2C[C@@H](O)CN2C(=O)NCc2cccc(Cl)c2F)C1` (mixture of isomers), the remaining activity was 97.7% (CYP3A4 (human); inhibitor, time-dependent inhibition; 1.85 µM, preincubated with NADPH, added: testosterone substrate; baseline: negative control).
`Nc1nc(-c2ccc(OC(F)(F)F)cc2)nc2[nH]nc(Nc3ccc(Cl)cc3)c12` has a CC50 of 10.2 µM (HeLa Ohio; 72 h).
